Measurements from different studies.
Compare with care: the assays were run in different laboratories. ± gives the spread as reported.
PLEKHA6 PH domain: Pleckstrin homology domain-containing family A member 6, PH domain (PLEKHA6, Homo sapiens, UniProt Q9Y2H5)
Sequence of UniProt Q9Y2H5 (whole entry, looked up): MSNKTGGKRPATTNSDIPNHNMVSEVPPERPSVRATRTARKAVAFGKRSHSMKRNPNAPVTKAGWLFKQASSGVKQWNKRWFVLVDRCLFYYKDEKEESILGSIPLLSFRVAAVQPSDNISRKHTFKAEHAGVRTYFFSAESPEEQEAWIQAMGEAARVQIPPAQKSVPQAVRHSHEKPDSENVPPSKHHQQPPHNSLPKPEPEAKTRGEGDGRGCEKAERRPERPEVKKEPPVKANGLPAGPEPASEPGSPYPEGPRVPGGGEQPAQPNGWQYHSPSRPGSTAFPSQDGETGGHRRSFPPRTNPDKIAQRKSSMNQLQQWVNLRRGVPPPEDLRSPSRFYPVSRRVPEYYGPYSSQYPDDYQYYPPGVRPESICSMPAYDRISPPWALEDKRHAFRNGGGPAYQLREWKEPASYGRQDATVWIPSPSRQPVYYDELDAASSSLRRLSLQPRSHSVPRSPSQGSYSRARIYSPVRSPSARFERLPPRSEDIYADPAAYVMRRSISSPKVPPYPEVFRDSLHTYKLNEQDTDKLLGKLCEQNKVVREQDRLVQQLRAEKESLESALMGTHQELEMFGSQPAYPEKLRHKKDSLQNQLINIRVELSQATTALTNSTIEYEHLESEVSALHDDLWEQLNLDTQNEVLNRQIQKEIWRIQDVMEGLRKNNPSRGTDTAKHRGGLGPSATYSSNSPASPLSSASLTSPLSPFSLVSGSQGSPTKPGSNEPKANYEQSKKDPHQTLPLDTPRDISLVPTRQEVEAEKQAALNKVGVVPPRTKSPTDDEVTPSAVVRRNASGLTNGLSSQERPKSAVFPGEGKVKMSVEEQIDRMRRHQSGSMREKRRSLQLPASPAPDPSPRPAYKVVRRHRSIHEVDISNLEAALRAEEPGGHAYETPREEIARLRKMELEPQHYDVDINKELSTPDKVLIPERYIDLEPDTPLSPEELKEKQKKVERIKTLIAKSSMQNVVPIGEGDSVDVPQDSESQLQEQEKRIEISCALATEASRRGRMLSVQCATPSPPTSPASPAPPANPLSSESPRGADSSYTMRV
ELAVL1: ELAV-like protein 1 (ELAVL1, Homo sapiens, UniProt Q15717)
Sequence of UniProt Q15717 (whole entry, looked up): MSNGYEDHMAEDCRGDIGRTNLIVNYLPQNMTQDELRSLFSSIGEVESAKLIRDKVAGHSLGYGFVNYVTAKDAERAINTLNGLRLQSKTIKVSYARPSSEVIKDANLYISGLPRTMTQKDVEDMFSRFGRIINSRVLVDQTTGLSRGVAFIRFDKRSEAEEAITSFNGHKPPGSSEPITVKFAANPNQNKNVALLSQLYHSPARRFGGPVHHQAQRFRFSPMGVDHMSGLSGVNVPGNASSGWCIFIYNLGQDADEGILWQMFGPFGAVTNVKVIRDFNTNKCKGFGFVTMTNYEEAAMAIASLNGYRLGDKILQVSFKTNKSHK
Urea transporter 1: Urea transporter 1 (Homo sapiens, UniProt Q13336)
Sequence of UniProt Q13336 (whole entry, looked up): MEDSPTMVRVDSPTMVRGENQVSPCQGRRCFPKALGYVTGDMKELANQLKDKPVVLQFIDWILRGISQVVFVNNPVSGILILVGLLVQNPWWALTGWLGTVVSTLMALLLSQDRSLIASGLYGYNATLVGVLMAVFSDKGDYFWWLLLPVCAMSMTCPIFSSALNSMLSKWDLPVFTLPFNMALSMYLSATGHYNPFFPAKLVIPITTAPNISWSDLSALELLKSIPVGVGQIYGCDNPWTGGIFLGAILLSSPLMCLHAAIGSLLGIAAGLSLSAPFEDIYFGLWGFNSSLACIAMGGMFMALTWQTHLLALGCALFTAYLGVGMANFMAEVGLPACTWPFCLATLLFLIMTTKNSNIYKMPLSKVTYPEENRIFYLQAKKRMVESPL
CYP2E1: Cytochrome P450 2E1 (CYP2E1, Homo sapiens, UniProt P05181)
Sequence of UniProt P05181 (whole entry, looked up): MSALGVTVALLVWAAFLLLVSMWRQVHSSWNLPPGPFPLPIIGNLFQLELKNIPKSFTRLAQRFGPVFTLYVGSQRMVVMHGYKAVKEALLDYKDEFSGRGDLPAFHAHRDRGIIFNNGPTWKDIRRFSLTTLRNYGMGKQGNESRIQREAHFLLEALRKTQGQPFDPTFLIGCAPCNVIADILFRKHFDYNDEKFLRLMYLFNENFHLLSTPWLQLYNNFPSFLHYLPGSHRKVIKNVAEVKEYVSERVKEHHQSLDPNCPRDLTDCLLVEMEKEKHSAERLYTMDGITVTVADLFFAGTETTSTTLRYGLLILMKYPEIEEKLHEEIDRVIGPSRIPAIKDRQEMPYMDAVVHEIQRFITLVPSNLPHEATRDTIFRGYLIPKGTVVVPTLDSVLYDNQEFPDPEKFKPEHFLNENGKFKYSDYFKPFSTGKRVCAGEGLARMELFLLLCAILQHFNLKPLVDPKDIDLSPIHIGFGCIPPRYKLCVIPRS
Sequence of UniProt Q96NT5 (whole entry, unmodified, looked up): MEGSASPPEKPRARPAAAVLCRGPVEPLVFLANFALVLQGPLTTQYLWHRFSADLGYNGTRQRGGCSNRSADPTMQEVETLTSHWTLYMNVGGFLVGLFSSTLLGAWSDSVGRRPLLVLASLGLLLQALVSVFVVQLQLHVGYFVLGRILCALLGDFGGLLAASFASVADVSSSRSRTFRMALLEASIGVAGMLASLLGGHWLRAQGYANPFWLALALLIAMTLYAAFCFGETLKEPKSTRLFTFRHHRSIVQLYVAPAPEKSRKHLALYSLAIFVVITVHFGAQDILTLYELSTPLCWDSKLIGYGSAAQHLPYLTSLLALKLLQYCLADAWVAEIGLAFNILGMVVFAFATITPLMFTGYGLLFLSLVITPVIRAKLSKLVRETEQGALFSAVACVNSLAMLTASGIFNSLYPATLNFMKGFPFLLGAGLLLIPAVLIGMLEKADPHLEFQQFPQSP
Sequence of UniProt P20618 (whole entry, looked up): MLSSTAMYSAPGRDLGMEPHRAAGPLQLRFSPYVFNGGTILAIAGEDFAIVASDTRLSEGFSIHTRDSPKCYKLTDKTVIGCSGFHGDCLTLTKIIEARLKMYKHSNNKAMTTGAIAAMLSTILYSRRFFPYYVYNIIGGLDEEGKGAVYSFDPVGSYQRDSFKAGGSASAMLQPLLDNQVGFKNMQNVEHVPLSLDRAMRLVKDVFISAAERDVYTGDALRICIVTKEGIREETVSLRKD
Sequence of UniProt P48039 (whole entry, looked up): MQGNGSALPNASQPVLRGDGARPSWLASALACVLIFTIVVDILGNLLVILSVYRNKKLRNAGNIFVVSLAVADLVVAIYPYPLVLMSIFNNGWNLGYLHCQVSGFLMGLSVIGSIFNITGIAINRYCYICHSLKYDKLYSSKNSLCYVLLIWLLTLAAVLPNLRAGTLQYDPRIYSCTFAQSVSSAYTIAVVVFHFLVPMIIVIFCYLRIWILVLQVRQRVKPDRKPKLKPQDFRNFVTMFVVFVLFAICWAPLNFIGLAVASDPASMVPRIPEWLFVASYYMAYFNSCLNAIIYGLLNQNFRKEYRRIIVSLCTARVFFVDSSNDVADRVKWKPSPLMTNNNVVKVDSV
Sequence of UniProt P52790 (whole entry, unmodified, looked up): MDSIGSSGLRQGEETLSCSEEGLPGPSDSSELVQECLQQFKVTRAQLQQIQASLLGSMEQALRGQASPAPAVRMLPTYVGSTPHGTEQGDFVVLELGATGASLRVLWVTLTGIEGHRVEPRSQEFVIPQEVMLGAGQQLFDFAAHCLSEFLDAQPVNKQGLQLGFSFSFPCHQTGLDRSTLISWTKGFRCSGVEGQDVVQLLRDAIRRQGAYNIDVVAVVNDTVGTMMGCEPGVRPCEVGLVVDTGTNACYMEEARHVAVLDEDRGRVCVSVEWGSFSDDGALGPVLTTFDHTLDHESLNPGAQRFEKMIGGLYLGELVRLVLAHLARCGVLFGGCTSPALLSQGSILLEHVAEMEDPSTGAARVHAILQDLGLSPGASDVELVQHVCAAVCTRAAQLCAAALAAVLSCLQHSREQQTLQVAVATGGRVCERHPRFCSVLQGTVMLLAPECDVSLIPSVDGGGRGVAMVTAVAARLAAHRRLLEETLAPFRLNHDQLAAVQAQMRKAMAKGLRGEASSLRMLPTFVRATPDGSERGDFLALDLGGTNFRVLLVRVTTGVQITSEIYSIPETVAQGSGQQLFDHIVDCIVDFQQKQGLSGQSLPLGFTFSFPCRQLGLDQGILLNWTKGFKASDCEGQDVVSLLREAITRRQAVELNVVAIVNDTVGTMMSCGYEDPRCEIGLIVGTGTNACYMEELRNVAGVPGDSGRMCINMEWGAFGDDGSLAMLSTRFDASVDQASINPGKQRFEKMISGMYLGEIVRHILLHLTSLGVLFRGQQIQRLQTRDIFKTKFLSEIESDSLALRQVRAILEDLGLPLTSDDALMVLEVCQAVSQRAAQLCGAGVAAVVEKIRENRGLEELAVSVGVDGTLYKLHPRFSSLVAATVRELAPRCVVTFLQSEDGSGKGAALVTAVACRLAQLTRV
Sequence of UniProt P28074 (whole entry, looked up): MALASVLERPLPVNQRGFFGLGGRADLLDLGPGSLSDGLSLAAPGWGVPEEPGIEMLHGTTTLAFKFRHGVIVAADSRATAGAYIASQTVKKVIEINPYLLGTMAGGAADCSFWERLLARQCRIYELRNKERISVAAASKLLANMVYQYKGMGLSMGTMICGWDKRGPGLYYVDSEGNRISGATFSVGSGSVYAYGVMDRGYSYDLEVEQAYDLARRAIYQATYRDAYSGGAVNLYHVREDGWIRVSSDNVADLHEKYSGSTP
Sequence of UniProt P30542 (whole entry, looked up): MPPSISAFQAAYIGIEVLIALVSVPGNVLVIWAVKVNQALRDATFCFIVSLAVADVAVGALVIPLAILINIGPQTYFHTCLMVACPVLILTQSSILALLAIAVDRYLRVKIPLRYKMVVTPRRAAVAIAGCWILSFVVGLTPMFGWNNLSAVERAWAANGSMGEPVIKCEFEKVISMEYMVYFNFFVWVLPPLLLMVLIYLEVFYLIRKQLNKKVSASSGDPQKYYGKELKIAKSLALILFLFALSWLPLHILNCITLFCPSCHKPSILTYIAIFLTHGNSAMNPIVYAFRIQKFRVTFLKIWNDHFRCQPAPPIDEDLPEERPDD

Compound	target	assay	system	setting	Ki
CC1CCC(CC(=O)Nc2nnc(S(N)(=O)=O)s2)CC1 (centres unmarked)	Enterococcus faecium γ-carbonic anhydrase	CO2 hydration, inhibitor, stopped-flow kinetics			0.337 µM
CC1CC(C)CN(c2ccc(C=NNc3nc(-c4ccccc4)cs3)cc2)C1 (centres unmarked)	alpha-glucosidase	enzyme activity, inhibitor, Lineweaver-Burk plot		together with: p-nitrophenyl-alpha-D-glucopyranoside	1.76 ± 0.01 µM
COc1cccc(C(=O)CC(SCc2ccc(Cl)cc2)C(=O)O)c1 (centres unmarked)	PLEKHA6 PH domain	PLEKHA6 PI(4,5)P2 binding, fluorescence polarization		together with: BODIPY-PI(4,5)P2 tracer	102 ± 11 µM
CCOC(=O)c1cc2cc(NS(=O)(=O)c3ccc(C(C)(C)C)cc3)ccc2[nH]1	ELAVL1	Msi1 binding, inhibitor, fluorescence polarization			> 20 µM
CCOc1cccc(C(=O)CC(SCc2ccc(Cl)cc2)C(=O)O)c1 (centres unmarked)	PLEKHA6 PH domain	PLEKHA6 PI(4,5)P2 binding, fluorescence polarization		together with: BODIPY-PI(4,5)P2 tracer	44.9 ± 7.6 µM
OC[C@H]1OC(O)[C@H](O)[C@@H](O)[C@@H]1O (some centres unmarked)	Hexokinase-3 (HK3, Homo sapiens, UniProt P52790, E254A/R267A)	substrate inhibition		mutant E254A/R267A, complete substrate inhibition model, together with: ATP 20 mM	11000 ± 2000 µM
CCOc1ccc(C(=O)CC(SCc2ccc(Cl)cc2)C(=O)O)cc1OCC (centres unmarked)	PLEKHA6 PH domain	PLEKHA6 PI(4,5)P2 binding, fluorescence polarization		together with: BODIPY-PI(4,5)P2 tracer	86.5 ± 3.1 µM
CC(N)=O	Urea transporter 1	urea transport inhibition		together with: thiourea	100000 µM
NS(=O)(=O)c1nnc(NC(=O)CN2CCCC(F)(F)C2)s1	Enterococcus faecium γ-carbonic anhydrase	CO2 hydration, inhibitor, stopped-flow kinetics			0.0357 µM
CC1CC(C)CN(c2ccc(C=NNc3nc(-c4ccc(-c5ccccc5)cc4)cs3)cc2)C1 (centres unmarked)	alpha-glucosidase	enzyme activity, inhibitor, Lineweaver-Burk plot		together with: p-nitrophenyl-alpha-D-glucopyranoside	9.33 ± 0.85 µM
CNC(=O)NC	Urea transporter 1	urea transport inhibition		together with: thiourea	800 µM
O=C(O)[C@@H]1CCCN1	Pyrroline-5-carboxylate reductase 2 (PYCR2, Homo sapiens, UniProt Q96C36)	enzyme activity, competitive inhibitor, item: NADH oxidation		pH 7.5, 37 °C, competitive vs L-P5C, together with: L-P5C	145 ± 8 µM
Cc1ccc(C(=O)Nc2nnc(S(N)(=O)=O)s2)cc1	Enterococcus faecium γ-carbonic anhydrase	CO2 hydration, inhibitor, stopped-flow kinetics			0.178 µM
CCc1oc2ccccc2c1C(=O)c1cc(I)c(O)c(I)c1	CYP2E1	p-nitrophenol hydroxylation, inhibitor	baculosomes	10 min, with additive 100 µM	6 µM
O=C(CN1CCCCC1)Nc1ccc2oc(-c3ccco3)nc2c1	Adenosine receptor A1 (ADORA1, Homo sapiens, UniProt P30542)	ligand			2.5 µM
CCOC(=O)c1cc2cc(NC(=O)c3ccc(C(C)(C)C)cc3)ccc2[nH]1	ELAVL1	Msi1 binding, inhibitor, fluorescence polarization			> 20 µM
CCOc1ccc(C(=O)CC(SCc2ccc(F)cc2)C(=O)O)cc1 (centres unmarked)	PLEKHA6 PH domain	PLEKHA6 PI(4,5)P2 binding, fluorescence polarization		together with: BODIPY-PI(4,5)P2 tracer	124 ± 11 µM
NS(=O)(=O)c1nnc(NC(=O)C(F)CC2CCCCC2)s1 (centres unmarked)	Enterococcus faecium γ-carbonic anhydrase	CO2 hydration, inhibitor, stopped-flow kinetics			0.2 µM
CC1CC(C)CN(c2ccc(C=NNc3nc(-c4ccc(Cl)cc4)cs3)cc2)C1 (centres unmarked)	alpha-glucosidase	enzyme activity, inhibitor, Lineweaver-Burk plot		together with: p-nitrophenyl-alpha-D-glucopyranoside	4.61 ± 0.24 µM
NS(=O)(=O)c1nnc(NC(=O)COC2CCC(F)(F)CC2)s1	Enterococcus faecium γ-carbonic anhydrase	CO2 hydration, inhibitor, stopped-flow kinetics			0.194 µM
CC(=O)C(=O)N(CC(C)C)NC(=O)[C@H](Cc1ccccc1)NC(=O)c1cnccn1	Proteasome component C5/PSMB5 (Homo sapiens, UniProt P20618+P28074)	enzyme activity, inhibitor, kinetic		together with: Suc-LLVY-AMC	474 ± 343 µM
Cc1ccc(CC(=O)Nc2nnc(S(N)(=O)=O)s2)cc1	Enterococcus faecium γ-carbonic anhydrase	CO2 hydration, inhibitor, stopped-flow kinetics			0.12 µM

Compound	target	assay	system	setting	Ki
CNC(N)=O	Urea transporter 1	urea transport inhibition		together with: thiourea	100000 µM
CCOc1ccc(C(=O)CC(SCc2cccc(Br)c2)C(=O)O)cc1 (centres unmarked)	PLEKHA6 PH domain	PLEKHA6 PI(4,5)P2 binding, fluorescence polarization		together with: BODIPY-PI(4,5)P2 tracer	36 ± 2.7 µM
Nc1ncnc2c1ncn2[C@@H]1O[C@H](COP(=O)(O)OP(=O)(O)O)[C@@H](O)[C@H]1O	klp-6 (Caenorhabditis elegans, UniProt G5EFQ4, I117M)	microtubule gliding velocity, competitive inhibitor, single-molecule TIRF		pH 7.4, together with: Mg-ATP varied, porcine microtubules	271 ± 6 µM
CCOc1ccc(C(=O)CC(SCc2ccccc2Br)C(=O)O)cc1 (centres unmarked)	PLEKHA6 PH domain	PLEKHA6 PI(4,5)P2 binding, fluorescence polarization		together with: BODIPY-PI(4,5)P2 tracer	61.4 ± 4.5 µM
CCc1oc2ccccc2c1C(=O)c1cc(Br)c(O)c(Br)c1	CYP2E1	p-nitrophenol hydroxylation, inhibitor	baculosomes	10 min, with additive 100 µM	15.8 µM
CC(C)(C)CCC(=O)Nc1nnc(S(N)(=O)=O)s1	Enterococcus faecium γ-carbonic anhydrase	CO2 hydration, inhibitor, stopped-flow kinetics			0.376 µM
CC(=O)NC(N)=S	Urea transporter 1	urea transport inhibition		together with: thiourea	20000 µM
COc1ccc(C(=O)CC(SCc2ccc(Cl)cc2)C(=O)O)cc1 (centres unmarked)	PLEKHA6 PH domain	PLEKHA6 PI(4,5)P2 binding, fluorescence polarization		together with: BODIPY-PI(4,5)P2 tracer	211 ± 18 µM
CC1CCCC(C(=O)Nc2nnc(S(N)(=O)=O)s2)C1 (centres unmarked)	Enterococcus faecium γ-carbonic anhydrase	CO2 hydration, inhibitor, stopped-flow kinetics			0.416 µM
CC1CC(C)CN(c2ccc(C=NNc3nc(-c4ccc([N+](=O)[O-])cc4)cs3)cc2)C1 (centres unmarked)	alpha-glucosidase	enzyme activity, inhibitor, Lineweaver-Burk plot		together with: p-nitrophenyl-alpha-D-glucopyranoside	4.59 ± 0.32 µM
CCOc1ccc(C(=O)CC(SCc2ccc(OC)cc2)C(=O)O)cc1 (centres unmarked)	PLEKHA6 PH domain	PLEKHA6 PI(4,5)P2 binding, fluorescence polarization		together with: BODIPY-PI(4,5)P2 tracer	175 ± 26 µM
Nc1nc2c(c(=O)[nH]1)N(C=O)[C@H](CNc1ccc(C(=O)N[C@@H](CCC(=O)O)C(=O)O)cc1)CN2	Proton-coupled folate transporter (Homo sapiens, UniProt Q96NT5, H247A)	[3H]methotrexate uptake, inhibitor, Dixon plot	transfected cells wt-H247A	pH 5.5, together with: [3H]methotrexate 0.5 µM	0.13 ± 0.02 µM
CNC=O	Urea transporter 1	urea transport inhibition		together with: thiourea	100000 µM
CCc1oc2ccccc2c1C(=O)c1ccc(O)cc1	CYP2E1	p-nitrophenol hydroxylation, inhibitor	baculosomes	10 min, with additive 1 µM	0.57 µM
O=c1n(CCCN2CCN(c3cccc(Cl)c3)CC2)nc2ccccn12	Melatonin receptor type 1A (MTNR1A, Homo sapiens, UniProt P48039)				> 10 µM
CCCCC(N)=O	Urea transporter 1	urea transport inhibition		together with: thiourea	20000 µM
CCOC(=O)/C=C/c1cc2cc(NC(=O)c3ccc(C(C)(C)C)cc3)ccc2[nH]1	ELAVL1	Msi1 binding, inhibitor, fluorescence polarization			> 20 µM
NC(=O)NC(N)=O	Urea transporter 1	urea transport inhibition		together with: thiourea	20000 µM
CC1CC(C)CN(c2ccc(C=NNc3nc(-c4ccc(F)cc4)cs3)cc2)C1 (centres unmarked)	alpha-glucosidase	enzyme activity, inhibitor, Lineweaver-Burk plot		together with: p-nitrophenyl-alpha-D-glucopyranoside	3.11 ± 0.18 µM
NC(N)=S	Urea transporter 1	urea transport		inhibitor both sides	12000 µM
CC1CC(C)CN(c2ccc(C=NNc3nc(-c4ccc(C#N)cc4)cs3)cc2)C1 (centres unmarked)	alpha-glucosidase	enzyme activity, inhibitor, Lineweaver-Burk plot		together with: p-nitrophenyl-alpha-D-glucopyranoside	> 100 µM
CCOC(=O)c1cc2cc(NC(=O)c3ccc(N(C)C)cc3)ccc2[nH]1	ELAVL1	Msi1 binding, inhibitor, fluorescence polarization			9.48 µM

For quick reference, copied from above:
Compound	target	assay	system	setting	Ki
O=C(CN1CCCCC1)Nc1ccc2oc(-c3ccco3)nc2c1	Adenosine receptor A1 (ADORA1, Homo sapiens, UniProt P30542)	ligand			2.5 µM
CC1CC(C)CN(c2ccc(C=NNc3nc(-c4ccccc4)cs3)cc2)C1 (centres unmarked)	alpha-glucosidase	enzyme activity, inhibitor, Lineweaver-Burk plot		together with: p-nitrophenyl-alpha-D-glucopyranoside	1.76 ± 0.01 µM
CCOc1ccc(C(=O)CC(SCc2ccc(Cl)cc2)C(=O)O)cc1OCC (centres unmarked)	PLEKHA6 PH domain	PLEKHA6 PI(4,5)P2 binding, fluorescence polarization		together with: BODIPY-PI(4,5)P2 tracer	86.5 ± 3.1 µM
